Results from different studies.
“And” joins repeats or separate records; there may be more than shown. ± gives the spread as reported.

Cc1nc(Nc2ncc(C(=O)Nc3c(C)cccc3Cl)s2)cc(N2CCN(CCO)CC2)n1 — AUC(0-t) (patients, plasma; oral, 100 mg, day 0, given alone, geometric mean): 476 ng·h/mL
C#C[C@]1(O)CC[C@H]2[C@@H]3CCc4cc(O)ccc4[C@H]3CC[C@@]21C — AUC(0-t) (HIV-positive women, control arm, serum; oral, 30 µg with levonorgestrel, 72 h, steady state): 3.27 ± 0.744 ng·h/mL
Cc1nc(-c2ccc(OCC(C)C)c(C#N)c2)sc1C(=O)O — AUC(0-t) (healthy Chinese adult volunteers, plasma; oral, 20 mg single dose, fasting): 3500 ± 757 ng·h/mL
Cc1ccc(NC(=O)c2ccc(CN3CCN(C)CC3)cc2)cc1Nc1nccc(-c2cncc(-c3oncc3C)c2)n1 — AUC(0-t) (Parkinson's disease patients, plasma; oral, 100 mg once daily, day 1, 7-day dosing, mean): 50200 ng·h/mL
O=C(NC[C@H](O)CO)c1ccncc1Nc1ccc(I)cc1F — AUC(0-t) (patients, plasma; oral, 60 mg single dose, day 8, median, alone): 1260 ng·h/mL
CCC[C@H](N[C@@H](C)C(=O)N1[C@H](C(=O)O)C[C@@H]2CCCC[C@@H]21)C(=O)OCC — AUC(0-t) (healthy Chinese volunteers, whole blood; oral, 4 mg, up to 6 h, fasting, added: indapamide 1.25 mg): 34 ± 8.6 ng·h/mL
CC(C)=CCC[C@](C)(O[C@@H]1O[C@H](CO)[C@@H](O)[C@H](O)[C@H]1O)[C@H]1CC[C@]2(C)[C@@H]1[C@H](O)C[C@@H]1[C@@]3(C)CC[C@H](O[C@@H]4O[C@H](CO)[C@@H](O)[C@H](O)[C@H]4O[C@@H]4O[C@H](CO)[C@@H](O)[C@H](O)[C@H]4O)C(C)(C)[C@@H]3CC[C@]12C — AUC(0-t) (LC-MS/MS; healthy female volunteers, serum; oral, 3 g red ginseng): 10.8 ± 11.8 ng·h/mL
C=C(C)[C@@H]1CC[C@]2(NCCN3CCS(=O)(=O)CC3)CC[C@]3(C)[C@H](CC[C@@H]4[C@@]5(C)CC=C(C6=CC[C@@](CF)(C(=O)O)CC6)C(C)(C)[C@@H]5CC[C@]43C)[C@@H]12 — AUC(0-t) (healthy adults, plasma; oral, 200 mg once daily, day 7, steady state, moderate-fat meal, added: dolutegravir 50 mg): 27800 ng·h/mL
CC(=O)c1nn(CC(=O)N2C[C@H](F)C[C@H]2C(=O)Nc2cccc(Br)n2)c2ccc(-c3cnc(C)nc3)cc12 — AUC(0-t) (Dutch Belted rabbit, plasma; oral, 15 mg/kg single dose): 1570 ng·h/mL
Cc1[nH]c(/C=C2\C(=O)Nc3ccccc32)c(C)c1CCC(=O)O — AUC(0-t) (Japanese patients, plasma; oral, 1200 mg/m^2, day 8): 32900 ± 16200 ng·h/mL
O=C(c1cc(Cl)c(O)c(Cl)c1)N1CS(=O)(=O)c2ccccc21 — AUC(0-t) (healthy Chinese adults, fasted, plasma; oral, 4 mg single dose, day 1): 4700 ± 608 ng·h/mL
COc1cc2c(cc1OC)CN(CCc1ccc(NC(=O)c3cc(OC)c(OC)cc3NC(=O)c3cnc4ccccc4c3)cc1)CC2 — AUC(0-t) (human, plasma; intravenous infusion, 6 mg/kg, up to 24 h post-infusion): 16200 ng·h/mL and 20000 ng·h/mL and 18000 ng·h/mL and 20100 ng·h/mL
CNC(=O)c1ccc(-c2cnc3ncc(Cc4ccc5ncccc5c4)n3n2)cc1F — AUC(0-t) (mild hepatic impairment; oral, 200 mg, geometric mean): 4730 ng·h/mL
CC(C)=CCC[C@](C)(O[C@@H]1O[C@H](CO)[C@@H](O)[C@H](O)[C@H]1O)[C@H]1CC[C@]2(C)[C@@H]1[C@H](O)C[C@@H]1[C@@]3(C)CC[C@H](O[C@@H]4O[C@H](CO)[C@@H](O)[C@H](O)[C@H]4O)C(C)(C)[C@@H]3CC[C@]12C — AUC(0-t) (LC-MS/MS; healthy male volunteers, serum; oral, 3 g fermented red ginseng): 29.2 ± 43.2 ng·h/mL
CCC[C@H](N[C@@H](C)C(=O)N1[C@H](C(=O)O)C[C@@H]2CCCC[C@@H]21)C(=O)O — AUC(0-t) (healthy Chinese volunteers, whole blood; oral, 4 mg perindopril tert-butylamine, up to 48 h, fasting, added: indapamide 1.25 mg): 60.8 ± 15.7 ng·h/mL
CC#CC(=O)N1CCC[C@H]1c1nc(-c2ccc(C(=O)Nc3ccccn3)cc2)c2c(N)nccn12 — AUC(0-t) (Japanese patients, plasma; oral, 100 mg twice daily, day 8, fasting, multiple dose, geometric mean): 1210 ng·h/mL
C[C@H]1Oc2cc(cnc2N)-c2c(nn(C)c2C#N)CN(C)C(=O)c2ccc(F)cc21 — AUC(0-t) (healthy adults; oral tablet, 100 mg single dose, fasted, adjusted geometric mean): 7980 ng·h/mL
CC[C@H](C)[C@H](NC(=O)[C@H](CCC(=O)O)NC(=O)[C@H](CO)NC(=O)[C@@H](NC(=O)[C@@H](N)CO)C(C)C)C(=O)N[C@@H](CCC(N)=O)C(=O)N[C@@H](CC(C)C)C(=O)N[C@@H](CCSC)C(=O)N[C@@H](Cc1cnc[nH]1)C(=O)N[C@@H](CC(N)=O)C(=O)N[C@@H](CC(C)C)C(=O)NCC(=O)N[C@@H](CCCCN)C(=O)N[C@@H](Cc1cnc[nH]1)C(=O)N[C@@H](CC(C)C)C(=O)N[C@@H](CC(N)=O)C(=O)N[C@@H](CO)C(=O)N[C@@H](CCSC)C(=O)N[C@@H](CCC(=O)O)C(=O)N[C@@H](CCCN=C(N)N)C(=O)N[C@H](C(=O)N[C@@H](CCC(=O)O)C(=O)N[C@@H](Cc1c[nH]c2ccccc12)C(=O)N[C@@H](CC(C)C)C(=O)N[C@@H](CCCN=C(N)N)C(=O)N[C@@H](CCCCN)C(=O)N[C@@H](CCCCN)C(=O)N[C@@H](CC(C)C)C(=O)N[C@@H](CCC(N)=O)C(=O)N[C@@H](CC(=O)O)C(=O)N[C@H](C(=O)N[C@@H](Cc1cnc[nH]1)C(=O)N[C@@H](CC(N)=O)C(=O)N[C@@H](Cc1ccccc1)C(=O)O)C(C)C)C(C)C — AUC(0-t) (postmenopausal women, osteoporosis, plasma; subcutaneous, 56.5 µg once weekly): 0.883 to 1.18 ng·h/mL
CC1Cc2ccccc2N1NC(=O)c1ccc(Cl)c(S(N)(=O)=O)c1 (stereo not shown) — AUC(0-t) (healthy Chinese volunteers, whole blood; oral, 1.25 mg, up to 48 h, fasting, added: perindopril tert-butylamine 4 mg): 882 ± 126 ng·h/mL
CCCN1CC(c2ccc(S(C)(=O)=O)cc2)=C(c2ccc(C)cc2)C1=O — AUC(0-t) (healthy Chinese, elderly, plasma; oral, 100 mg): 183 ng·h/mL
O=C(O)C[C@H](O)C[C@H](O)/C=C/c1c(C2CC2)nc2ccccc2c1-c1ccc(F)cc1 — AUC(0-t) (healthy Chinese female volunteers, plasma; oral, 2 mg once daily, multiple dose): 321 ng·h/mL
CS(=O)(=O)c1ccc([C@@H](O)[C@@H](CF)NC(=O)C(Cl)Cl)cc1 — AUC(0-t) (chicken, HY-Line Brown hens, plasma; oral, 20 mg/kg): 24200 ± 2450 ng·h/mL
CCC(CC)O[C@@H]1C=C(C(=O)O)C[C@H](N)[C@H]1NC(C)=O — AUC(0-t) (healthy Indian subjects, fed, plasma; oral, 75 mg oseltamivir phosphate, 0 to 48 h, test capsule formulation): 3770 ± 656 ng·h/mL
Cc1nc2cccc(N)c2c(=O)n1C1CCC(=O)NC1=O (stereo not shown) — AUC(0-t) (healthy adults, plasma; oral, 3 mg, fasted geometric mean alone): 675 ng·h/mL
NC(=O)c1cnc2[nH]ccc2c1N[C@@H]1[C@@H]2CC3C[C@H]1C[C@@](O)(C3)C2 — AUC(0-t) (healthy Japanese men, plasma; oral, 60 mg, single dose fasted): 776 ng·h/mL

Excerpt of the above:
COc1cc2c(cc1OC)CN(CCc1ccc(NC(=O)c3cc(OC)c(OC)cc3NC(=O)c3cnc4ccccc4c3)cc1)CC2 — AUC(0-t) (human, plasma; intravenous infusion, 6 mg/kg, up to 24 h post-infusion): 16200 ng·h/mL and 20000 ng·h/mL and 18000 ng·h/mL and 20100 ng·h/mL
CNC(=O)c1ccc(-c2cnc3ncc(Cc4ccc5ncccc5c4)n3n2)cc1F — AUC(0-t) (mild hepatic impairment; oral, 200 mg, geometric mean): 4730 ng·h/mL
CC(C)=CCC[C@](C)(O[C@@H]1O[C@H](CO)[C@@H](O)[C@H](O)[C@H]1O)[C@H]1CC[C@]2(C)[C@@H]1[C@H](O)C[C@@H]1[C@@]3(C)CC[C@H](O[C@@H]4O[C@H](CO)[C@@H](O)[C@H](O)[C@H]4O)C(C)(C)[C@@H]3CC[C@]12C — AUC(0-t) (LC-MS/MS; healthy male volunteers, serum; oral, 3 g fermented red ginseng): 29.2 ± 43.2 ng·h/mL
